Experimental data from different studies.
Every numbered part comes from another study and shows a few of its results, in no order. Positions count from the first letter of the parent shown.

Set 1
Target: CCNE2, cyclin fold, Cln2 fusion (human)
Technique: yeast growth competition, sequencing
Matrix: yeast
Notes: weak parent motif
Relative to: not given
Direction: higher = stronger binding
Starting sequence: SLBP docking peptide (human); ARYKRKLLINDFG
`ARYKRKLLINQFG [D11Q]`: “normalised enrichment score” 1.32.
`RRYKRKLLINDFG [A1R]`: “normalised enrichment score” 0.765.
`ARYTRKLLINDFG [K4T]` — result for “normalised enrichment score”: -0.0992.
`AREKRKLLINDFG [Y3E]` — result for “normalised enrichment score”: 0.594.
For `ARYKRKLLINDFQ [G13Q]`, “normalised enrichment score” read 1.27.
`ARYKRKLLINDFL [G13L]` — result for “normalised enrichment score”: 0.179.
`ARYKRKLLINDTG [F12T]`: “normalised enrichment score” -0.356.
`ARYSRKLLINDFG [K4S]`: “normalised enrichment score” 0.502.
`ARYKRKLLINDLG [F12L]` — result for “normalised enrichment score”: 0.716.
`NRYKRKLLINDFG [A1N]` — result for “normalised enrichment score”: 0.914.
`ARYKRKLLINDFR [G13R]`: “normalised enrichment score” 0.54.
For `HRYKRKLLINDFG [A1H]`, “normalised enrichment score” read 0.205.
`ARYKRKLLINDCG [F12C]` — result for “normalised enrichment score”: 0.701.
Under “normalised enrichment score”, `LRYKRKLLINDFG [A1L]` is recorded as 0.26.
`ARKKRKLLINDFG [Y3K]`: “normalised enrichment score” 0.00364.
For `ARYDRKLLINDFG [K4D]`, “normalised enrichment score” read -0.198.
Under “normalised enrichment score”, `ARYKRKLLVNDFG [I9V]` is recorded as 0.83.
`ARYKRKLIINDFG [L8I]`: “normalised enrichment score” 0.908.
For `ARYKRKLLINDFD [G13D]`, “normalised enrichment score” read 0.00935.
`ARYKRKLLIRDFG [N10R]`: “normalised enrichment score” -0.084.
`GRYKRKLLINDFG [A1G]` — result for “normalised enrichment score”: 1.01.
For `ARYKRKLLINDFE [G13E]`, “normalised enrichment score” read 0.699.
`ARYKRKLLMNDFG [I9M]`: “normalised enrichment score” 0.85.
For `ARYKRKLLINDFK [G13K]`, “normalised enrichment score” read 0.243.
Under “normalised enrichment score”, `ARYKRKLLINDFH [G13H]` is recorded as 1.26.

Set 2
Target: RNA binding protein fox-1 homolog 2, RRM domain, GST-SBP tag (RBFOX2, Homo sapiens, UniProt O43251-10, residues 100-194)
Technique: RNA Bind-n-Seq
Form: RNA
Matrix: in vitro
Concentration: 365 nM
Notes: natural RNA segment, single round, ends assumed
Relative to: no-protein control
Direction: higher = stronger binding
All sequences stand within: GGGAGUUCUACAGUCCGACGAUC … UGGAAUUCUCGGGUGCCAA
Target sequence (chain): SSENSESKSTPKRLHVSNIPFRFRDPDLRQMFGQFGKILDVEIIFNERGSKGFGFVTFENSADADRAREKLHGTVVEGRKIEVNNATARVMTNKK
For `CUGUGUGUGUGGACGAGAAGCCAUUCACCGUAAGGGUGCAGAAAGCUCGACCAAGCCGAAUUGCAAACAACGUUCGUUCUAUUUUUAAAUGUACAGGUUCGAUCGUUUCU`, “RBNS enrichment (R)” read 0.281.
`GUGUGGAUCAGAUACAUACUUGGCAAAUUUUUGAGUUUUACAUUCUUACAGAAAAGUCCAUUUAAAAGUGAUCAUUUGUAAGACCAAAAUAUAAAUAAAAAGUUUCAAAA`: “RBNS enrichment (R)” 0.619.
`UUUUCUGUUAACAGGAAAAUUUAUUUAUUUGACAGGAUUUUAAGUAAUGUAGGAAUACAAAUGGUAAAUUAGCAGCACAUAUAAUUUUUUUUAAAUUUAUGAUCCAUUUU`: “RBNS enrichment (R)” 1.7.
`CUCUGAGCUUUGUUACUGAAAUGAGCCUCGUGGGGAGCAUCAGAGAAGGCCAGGAAGAAUGGUGUGUUUCCCUAGACUCUGUAACCACCUCUCUGUCUUUUUCCUUCCUG` — result for “RBNS enrichment (R)”: 0.424.
For `ACAAAACAUAUAAAAGUAACAGAAUCUAGCUGGGCUAUGGUGGGACACAGCUUUAAUCUCAGGAACCAGAGACUGGUUGGUUUUUUGUUGUUUGUUGUUUCUUUUGGUUG`, “RBNS enrichment (R)” read 0.497.
`CUUCUGGGGUCGUCUGUCCUAUCCGUGGAUUGUAUAUACUCUUCUCUGUUAAGGAGUUUUUCCCAAGAAGAAAAGUAUUUAAAAGAAAUACCAGUGAGUGCCUUAAAGUU` — result for “RBNS enrichment (R)”: 0.636.
For `UUUAGAUUGUCUCAUCUUGUGACUUUAUAAUGCCUGUCCCCUCCACUGGUCAAUUCAGCAUAUGGAAGUAUAAAUGCAGUCUUUUUACUAGGCAGAUAUAUAUGCUAUCU`, “RBNS enrichment (R)” read 0.735.
Under “RBNS enrichment (R)”, `UAUAUAUCUUUUACAGAGGCUAUUUUAAUCUUUAGUGCAUGGUUAACAGAAAAAAAUUAUACAAUUUUGACAAUAUUAUUUUUCGUAUCAGGUUGCUGUUUAAUUUUGGA` is recorded as 3.46.

Set 3
Target: ABI1, truncated, D143A, DHFR fusion (Arabidopsis thaliana)
Technique: DHFR PCA, deep sequencing
Matrix: yeast
Notes: methotrexate growth selection, single substitutions
Together with: (+)-ABA 710 µM
Relative to: wild-type fitted maximum
Direction: higher = stronger binding
Starting sequence: PYL1, truncated, DHFR fusion (Arabidopsis thaliana); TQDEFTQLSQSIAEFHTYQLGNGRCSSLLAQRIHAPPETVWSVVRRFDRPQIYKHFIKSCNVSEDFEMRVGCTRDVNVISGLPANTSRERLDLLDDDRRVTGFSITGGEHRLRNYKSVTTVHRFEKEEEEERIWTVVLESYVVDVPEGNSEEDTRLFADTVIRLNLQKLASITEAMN
Under “relative binding score”, `S150P` is recorded as 49.3%.
`S87F` — result for “relative binding score”: 4.75%.
`T160H`: “relative binding score” 90.3%.
Under “relative binding score”, `D97E` is recorded as 122%.
For `F15M`, “relative binding score” read 90.3%.
`E152N`: “relative binding score” 92.7%.
Under “relative binding score”, `K116E` is recorded as 82.7%.
For `I79P`, “relative binding score” read 71.3%.
`N149I`: “relative binding score” 76.8%.
Under “relative binding score”, `E174W` is recorded as 79%.
For `N22H`, “relative binding score” read 103%.
Under “relative binding score”, `I172Y` is recorded as 96.5%.
Under “relative binding score”, `T73H` is recorded as 100%.
Under “relative binding score”, `S171R` is recorded as 102%.

Set 4
Target: Histone acetyltransferase KAT6A, winged helix 1, GST fusion (KAT6A, Homo sapiens, UniProt Q92794, residues 1-85)
Technique: protein binding microarray
Form: double-stranded DNA, one strand shown
Matrix: in vitro
Concentration: not given
Notes: 8-mer, flanks averaged, mean of 2 arrays, mostly near background
Relative to: not given
Direction: higher = stronger binding
Residues (chain): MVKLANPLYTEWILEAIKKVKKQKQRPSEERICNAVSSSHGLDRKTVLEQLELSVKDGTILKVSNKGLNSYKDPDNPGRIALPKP
The E-score of `CGCCTCAG` is reported as 0.21.
`AACCTTCT` has an E-score of -0.123.
With `TTCAGAAA` the E-score was -0.173.
With `CGTGCTGA` the E-score was -0.143.
For `CTCTTTCA`, the E-score was -0.0922.
`TCAGTCCA` has an E-score of -0.263.
The E-score of `GGCATCAC` is reported as 0.155.
`ATACATGA` gave an E-score of -0.0903.
With `ACGCGCAG` the E-score was 0.291.
For `ATCATAGC`, the E-score was -0.064.
`TCCGGAGA` has an E-score of 0.126.
`AGGCATAC` has an E-score of -0.166.
With `GAGGATAC` the E-score was -0.124.
`ACCTAACA` gave an E-score of -0.124.
`CATCAATG` gave an E-score of -0.0575.
With `CCCACCTA` the E-score was -0.153.
`CGCCGATA` has an E-score of 0.379.
The E-score of `AAATTAGC` is reported as 0.0927.
The E-score of `CCTTCACG` is reported as 0.15.

Some of these lines once more (set 1):
`ARYKRKLIINDFG [L8I]`: “normalised enrichment score” 0.908.
For `ARYKRKLLINDFD [G13D]`, “normalised enrichment score” read 0.00935.
`ARYKRKLLIRDFG [N10R]`: “normalised enrichment score” -0.084.
`GRYKRKLLINDFG [A1G]` — result for “normalised enrichment score”: 1.01.
For `ARYKRKLLINDFE [G13E]`, “normalised enrichment score” read 0.699.
`ARYKRKLLMNDFG [I9M]`: “normalised enrichment score” 0.85.
For `ARYKRKLLINDFK [G13K]`, “normalised enrichment score” read 0.243.
Under “normalised enrichment score”, `ARYKRKLLINDFH [G13H]` is recorded as 1.26.
